Experimental data from different studies.
“And” joins repeats or separate records; there may be more than shown. ± marks the error that the study gave.

O=C(CN1CCN(CC(=O)NCc2ncccc2O)CCN(CC(=O)NCc2ncccc2O)CCN(CC(=O)NCc2ncccc2O)CC1)NCc1ncccc1O.[177Lu+3] — tissue uptake (Sprague-Dawley rat, pancreas; intravenous (tail vein), dose not given, 2 h): 0.026 ± 0.023 % injected dose/g
CC(=O)N[C@H](CC(=O)O)C(=O)N[C@H](Cc1c[nH]c2ccccc12)C(=O)N[C@H](Cc1ccccc1)C(=O)N[C@H](CCCCN)C(=O)N[C@H](C)C(=O)N[C@H](Cc1ccccc1)C(=O)N[C@H](Cc1ccc(O)cc1)C(=O)N[C@H](CC(=O)O)C(=O)N[C@H](CCCCN)C(=O)N[C@@H](C(=O)N[C@H](C)C(=O)N[C@H](CCC(=O)O)C(=O)N[C@H](CCCCN)C(=O)N[C@H](Cc1ccccc1)C(=O)N[C@H](CCCCN)C(=O)N[C@H](CCC(=O)O)C(=O)N[C@H](C)C(=O)N[C@H](Cc1ccccc1)C(N)=O)C(C)C — plasma concentration (human, plasma; oral, dose not given, 0.25 h post-dose, day 13): 71.1 ng/mL
C=CC(=O)Nc1cc(Nc2nccc(-c3cn(C)c4ccccc34)n2)c(OC)cc1N(C)CCNC — recovery (storage stability; human dried blood spots; 72 h, on ice, LLOQ level): 73.3%
CS(=O)(=O)c1cc(Cl)cc(-c2cc(Cl)c(Cl)cc2Cl)c1Cl — milk fat partition ratio (cow whole milk; 20 nM; reference: milk fat over skim milk): 231
CCCSc1c(F)c(F)c(S(N)(=O)=O)c(F)c1F — pKa (sulfonamide group): 8.15
CCCC[C@H](NC(=O)CNC(=O)CNC(=O)[C@H](CCCCNC(=O)[C@H](CC(N)=O)NC(=O)C(C)c1ccc(CC(C)C)cc1)NC(=O)CN1CCN(CC(=O)O)CCN(CC(=O)O)CCN(CC(=O)O)CC1)C(=O)N[C@H]1CC(=O)NCCCC[C@@H](C(N)=O)NC(=O)[C@H](Cc2c[nH]c3ccccc23)NC(=O)[C@H](CCCNC(=N)N)NC(=O)[C@@H](Cc2ccccc2)NC(=O)[C@H](Cc2c[nH]cn2)NC1=O (stereo partly shown) [lutetium-177 labelled] — tumour-to-tissue ratio (C57 mice, tumour; 2 h; reference: kidney): 0.85
C=CC(=O)Nc1cc(Nc2nccc(-c3c[nH]c4ccccc34)n2)c(OC)cc1N(C)CCN(C)C — recovery (storage stability; human dried blood spots; 5 h, on ice, high QC level): 101%
Cc1cc(C)n(CCN(CCN)CCCCCCNC(=O)[C@@H](N)Cc2c[nH]cn2)n1.[99Tc+].[C-]#[O+].[C-]#[O+].[C-]#[O+] — tumour-to-tissue ratio (BALB/c nude mice A549 xenograft; intravenous, 24 h; reference: tumour over muscle): 10.9
CC(C(=O)O)n1nc(Cn2cc3cc(OCC[18F])c(Cl)cc3n2)c2ccccc2c1=O (racemic) — tracer uptake (rat, heart; 2 h): 0.1 %ID/g
C=C(NC(=O)c1csc(-c2nc3c(cc2O)-c2nc(cs2)C(=O)NC(C(C)O)C(=O)NC(=C(C)OC)c2nc(cs2)C(=O)NC2c4nc(cs4)C(=O)NC(COC(=O)c4c5c6c(cccc6n4O)COC(=O)C(OC4CC(C)(O)C(N(C)C)C(C)O4)C2OC5)c2nc-3cs2)n1)C(N)=O (stereo not shown) — Tmax (cynomolgus monkey, both sexes, plasma; intravenous infusion, 1.5 mg/kg twice daily, 0 to 6 h, first dose): 0.17 ± 0.17 h
C=Cc1c(C)c2cc3nc(c(CC(=O)OCCOCCOCCOC)c4[nH]c(cc5nc(cc1[nH]2)C(C)=C5CC)c(C)c4C(=O)O)[C@@H](CCC(=O)OCCOCCOCCOC)[C@@H]3C — compound loss (LC-MS; methanol-water 9:1; 1 h, pH 8.0): 18%
CC(C)OCCOCc1ccc(OCC(O)CN(N=O)C(C)C)cc1 (stereo not shown) — fold change (duplex sequencing, measured: mutation frequency; NMRI mouse, liver; oral, 98.0 mg/kg/day, 4 weeks; reference: vehicle): 1.45
CC(=O)N([O-])CCCCCNC(=O)CCC(=O)N([O-])CCCCCNC(=O)CCC(=O)N([O-])CCCCCN.[89Zr+4] — tracer uptake (mouse, spleen; 4 h): 0.24 %ID/g
CCC1CNC(CC)CN(C(C(=O)[O-])c2ccc(C(=O)[O-])cc2)C(CC)CN(CC(=O)[O-])C(CC)CN1.[Mn+2] (stereo not shown) — Mn content (ICP-MS; BALB/c mouse, brain; intravenous, 0.05 mmol/kg, 5 min, without anaesthesia): 0.65 ± 0.02 µg/g
N=C(N)NCCC[C@@H]1NC(=O)[C@H](CO)NC(=O)[C@@H](NC(=O)[C@H](CO)NC(=O)[C@H](CO)NC(=O)[C@H](Cc2c[nH]c3ccccc23)NC(=O)CNC(=O)[C@H](CO)NC(=O)[C@@H](N)Cc2c[nH]c3ccccc23)CSSC[C@@H](C(=O)NCC(=O)O)NC(=O)[C@H](CO)NC1=O — volume of distribution (Vz) (patients, plasma; intravenous, 5 mg/kg, thrice weekly, mean): 596 L
O=C(Nc1cnccc1-c1ccc([18F])cc1)c1ccnc(NC(=O)C2CC2)c1 — SUV (PET imaging; FVB/NJ mice, both sexes, brain; intravenous, 120 min post-injection, P-gp inhibited, with: tariquidar 15 mg/kg iv, 2 h before): 0.21
O=C(Nc1ccc(-c2nnc(-c3ccccn3)nn2)nc1)c1ccc(-c2cn(CCOCCOCCOCC[18F])nn2)cc1 — tumour to control tumour ratio (BALB/c nude mouse, LS174T xenograft; intravenous, dose not given, 1 h, with: CC49-TCO pretargeting): 1.2
COCC1CN(C2CCN(c3cc(OC)c(Nc4ncc(Br)c(Nc5ccc6c(c5P(C)(C)=O)OCCO6)n4)cc3C)CC2)C1 — AUC (human, plasma; oral, 30 mg, multiple doses, patients): 7230 ng·h/mL
CCCC[C@H]1C(=O)N(C)[C@@H](CCCC)C(=O)N[C@@H](CCCCNC(=S)Nc2ccc(CN3CCN(CC(=O)O)CCN(CC(=O)O)CC3)cc2)C(=O)N[C@H](C(=O)NCC(N)=O)CSCC(=O)N[C@@H](Cc2ccc(O)cc2)C(=O)N(C)[C@@H](C)C(=O)N[C@@H](CC(N)=O)C(=O)N2CCC[C@H]2C(=O)N[C@@H](Cc2cnc[nH]2)C(=O)N[C@@H](CCC(=O)O)C(=O)N2C[C@H](O)C[C@H]2C(=O)N[C@@H](Cc2c[nH]c3ccccc23)C(=O)N[C@@H](CO)C(=O)N[C@@H](Cc2cn(CC(=O)O)c3ccccc23)C(=O)N1C [fluorine-18 labelled] — tumour uptake (BFTC-909 subcutaneous xenograft, NSG mouse, tumour; intravenous, 60 min): 12.6 ± 4.38 %ID/g
CC[C@H](C)[C@@H]1NC(=O)[C@H](Cc2ccc(O)cc2)NC(=O)CCCSC[C@@H](C(=O)N(CC(=O)N[C@@H](CC(C)C)C(=O)NCC(N)=O)Cc2ccc(F)cc2)NC(=O)[C@H](CC(N)=O)NC(=O)[C@H](CCC(N)=O)NC1=O — serious adverse events (human; intranasal, 200 µg repeated doses): 0%
CN1CCC[C@]1(C)/C=C/S(=O)(=O)NC(=O)Nc1c2c(cc3c1CCC3)CC=C2 — Tmax at first steady-state dose (human, plasma; oral, 100 mg twice daily of parent drug, day 14, metabolite of dosed drug): 3 h
CC(=O)NCC(=O)N[C@@H](Cc1ccccc1)C(=O)N[C@@H](Cc1ccccc1)C(=O)N[C@@H](Cc1ccc(O)cc1)C(=O)NCC(=O)N[C@@H](Cc1ccc(O)cc1)C(=O)NCC(=O)N[C@@H](CO)C(=O)N[C@@H](CO)C(=O)N[C@@H](CO)C(=O)N[C@@H](CCCNC(=N)N)C(=O)N[C@@H](CCCNC(=N)N)C(=O)N[C@@H](C)C(=O)N1CCC[C@H]1C(=O)N[C@@H](CCC(N)=O)C(=O)N[C@H](C(=O)O)[C@@H](C)O — nanosphere diameter (TEM; PBS; 1.0 wt%, heating-cooling): 44.8 ± 10.9 nm
Cc1nn(-c2nc3c(F)cc(F)cc3s2)c(O)c1C(c1ccc(C(F)(F)F)cc1)c1c(C)nn(-c2nc3c(F)cc(F)cc3s2)c1O — dose-normalised AUC(0-t) (male ICR mouse, plasma; intraperitoneal, 10 mg/kg): 2870 kg·ng·h/mL/mg and 2600 kg·ng·h/mL/mg and 2640 kg·ng·h/mL/mg
[123I]c1ccc2nc(-c3ccc(-n4ccnn4)nc3)cn2c1 — tracer uptake (male Wistar rat, liver; intravenous, 4 MBq, 6 h): 0.183 %ID/g
COc1cccc(OC)c1-c1cc(C(=O)NC2(C(=O)O)C3CC4CC(C3)CC2C4)nn1-c1ccc(C(=O)N(C)CCCN(C)C(=O)[C@H](CCCCNC(=O)[C@H](CC(C)C)NC(=O)C2OC2C(=O)O)NC(=O)CN2CCN(CC(=O)[O-])CCN(CC(=O)[O-])CCN(CC(=O)[O-])CC2)cc1C(C)C.[177Lu+3] (mixture of isomers) — tumour-to-heart ratio (mouse, HT-29 xenograft; 72 h post injection, biodistribution; reference: tumour over heart uptake): 31.8
CCCCCCCOc1ccc(CC[C@](N)(CO)COP(=O)(O)O)cc1C(F)(F)F — Tmax (healthy male humans, plasma; 0.125 mg amiselimod, day 21, median): 8 h
O=C(Nc1cnccc1-c1ccc([18F])nc1)c1ccnc(NC(=O)C2CC2)c1 — SUV (mice, transgenic, GSK-3β, early-stage, small intestine; intravenous, dose not given, 120 min, with: tariquidar 15 mg/kg i.v. pre-dose): 1.7
CC(C)C[C@H](NC(=O)[C@@H](CCCCNC(=O)[C@@H](Cc1ccccc1)NC(=O)CCCCCCCNC(=O)CN1CCN(CC(=O)O)CCN(CC(=O)O)CCN(CC(=O)O)CC1)NC(=O)[C@H](Cc1ccc(O)cc1)NC(=O)[C@H](CO)NC(=O)[C@H](Cc1c[nH]c2ccccc12)NC(=O)[C@H](Cc1c[nH]cn1)NC(=O)[C@@H]1CCC(=O)N1)C(=O)N[C@@H](CCCNC(=N)N)C(=O)N1CCC[C@H]1C(=O)NCC(N)=O [indium-111 labelled] — tumour-to-tissue ratio (male athymic nude mice, DU-145 prostate cancer xenograft, tumour; intravenous, 0.037 MBq, 0.5 h; reference: tumour over muscle): 2.13

Excerpt of the above:
CCCC[C@H](NC(=O)CNC(=O)CNC(=O)[C@H](CCCCNC(=O)[C@H](CC(N)=O)NC(=O)C(C)c1ccc(CC(C)C)cc1)NC(=O)CN1CCN(CC(=O)O)CCN(CC(=O)O)CCN(CC(=O)O)CC1)C(=O)N[C@H]1CC(=O)NCCCC[C@@H](C(N)=O)NC(=O)[C@H](Cc2c[nH]c3ccccc23)NC(=O)[C@H](CCCNC(=N)N)NC(=O)[C@@H](Cc2ccccc2)NC(=O)[C@H](Cc2c[nH]cn2)NC1=O (stereo partly shown) [lutetium-177 labelled] — tumour-to-tissue ratio (C57 mice, tumour; 2 h; reference: kidney): 0.85
C=CC(=O)Nc1cc(Nc2nccc(-c3c[nH]c4ccccc34)n2)c(OC)cc1N(C)CCN(C)C — recovery (storage stability; human dried blood spots; 5 h, on ice, high QC level): 101%
